{"data": "Experimental data collected from several papers", "note": "Every numbered part comes from another study and shows a few of its results, in no order."}
{"data": "Study 1", "target": "Sal-like protein 4, full length isoform A (SALL4, Homo sapiens, UniProt Q9UJQ4, residues 1-1053)", "technique": "universal PBM", "form": "double-stranded DNA, one strand shown", "sample": "in vitro", "concentration": "600 nM", "notes": "8-mer, flanks averaged, mean of replicates", "reading": "higher = stronger binding", "UniProt Q9UJQ4, sequence (whole entry, looked up)": "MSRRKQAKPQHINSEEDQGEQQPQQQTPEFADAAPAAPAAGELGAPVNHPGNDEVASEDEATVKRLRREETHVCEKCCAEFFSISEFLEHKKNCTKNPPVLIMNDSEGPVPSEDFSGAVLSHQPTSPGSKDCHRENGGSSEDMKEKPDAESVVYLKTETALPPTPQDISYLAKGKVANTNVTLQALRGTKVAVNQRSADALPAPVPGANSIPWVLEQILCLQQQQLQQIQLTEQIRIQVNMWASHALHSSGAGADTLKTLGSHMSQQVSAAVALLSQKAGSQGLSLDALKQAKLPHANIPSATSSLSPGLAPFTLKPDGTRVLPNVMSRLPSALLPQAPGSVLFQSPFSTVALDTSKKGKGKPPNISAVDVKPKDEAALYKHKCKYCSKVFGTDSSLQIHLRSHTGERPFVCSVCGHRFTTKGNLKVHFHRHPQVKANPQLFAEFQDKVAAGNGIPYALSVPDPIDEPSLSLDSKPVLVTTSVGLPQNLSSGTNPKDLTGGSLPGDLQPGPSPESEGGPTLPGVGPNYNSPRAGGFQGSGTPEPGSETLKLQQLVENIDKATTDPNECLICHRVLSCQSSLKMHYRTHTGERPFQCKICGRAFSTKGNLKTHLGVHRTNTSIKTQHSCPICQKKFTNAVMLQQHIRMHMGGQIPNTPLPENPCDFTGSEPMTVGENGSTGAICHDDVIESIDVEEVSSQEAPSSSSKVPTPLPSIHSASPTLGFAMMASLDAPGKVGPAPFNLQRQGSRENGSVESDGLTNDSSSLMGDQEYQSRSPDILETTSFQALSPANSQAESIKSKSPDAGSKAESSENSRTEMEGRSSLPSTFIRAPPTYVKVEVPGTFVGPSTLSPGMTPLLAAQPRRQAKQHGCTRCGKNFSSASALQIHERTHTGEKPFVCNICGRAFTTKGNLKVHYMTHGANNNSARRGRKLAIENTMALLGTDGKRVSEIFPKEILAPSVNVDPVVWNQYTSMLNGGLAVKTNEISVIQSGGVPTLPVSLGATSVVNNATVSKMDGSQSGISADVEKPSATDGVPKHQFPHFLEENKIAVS"}
{"Oligonucleotide": "GCAGAGTA", "E-score": 0.0665}
{"Oligonucleotide": "ATGCCCGA", "E-score": -0.188}
{"Oligonucleotide": "CCGGGGCG", "E-score": -0.414}
{"Oligonucleotide": "ACCCATCA", "E-score": -0.103}
{"data": "Study 2", "target": "Interferon regulatory factor 5, full length, phosphomimetic (IRF5, Homo sapiens, UniProt Q13568-2, residues 1-514, S451D/S453D/S456D/S462D)", "technique": "protein-binding microarray", "form": "double-stranded DNA, one strand shown", "sample": "in vitro", "concentration": "940 nM top", "notes": "60-bp whole probe", "added": "salmon DNA 0.4 mg/ml", "baseline": "random background probes", "reading": "higher = stronger binding"}
{"Oligonucleotide": "GCCTAGCACGACTATTTCAGTATCGAGACGTGCTAGGTCTTGATTCGCTTGACGCTGCTG", "fitted relative affinity [z-score]": 3.15}
{"Oligonucleotide": "GCCTAGCACTTAGGTTCCCTTTTCCGTTAGTGCTAGGTCTTGATTCGCTTGACGCTGCTG", "fitted relative affinity [z-score]": 0.997}
{"Oligonucleotide": "GCCTAGCACGACGGTTTCAACTTTCGGGACGTGCTAGTCTTGATTCGCTTGACGCTGCTG", "fitted relative affinity [z-score]": 3.16}
{"data": "Further values, each from its own experiment", "KAT6A winged helix 1, GST fusion": "Histone acetyltransferase KAT6A, winged helix 1, GST fusion (KAT6A, Homo sapiens, UniProt Q92794, residues 1-85)"}
{"Molecule": "ATGATGCA", "target": "KAT6A winged helix 1, GST fusion", "test": "protein binding microarray", "system": "double-stranded DNA, one strand shown, in vitro", "setting": "not given, 8-mer, flanks averaged, mean of 2 arrays, mostly near background", "how to read": "baseline: not given, higher = stronger binding", "endpoint": "E-score", "result": -0.241}
{"Molecule": "PhoQ, residues 284 288 289 292 302 303 GLASVI", "target": "PhoP, residues 12 14 15 18 19 AQALL (Escherichia coli, UniProt P23836)", "test": "Sort-seq, item: YFP reporter", "system": "E. coli", "setting": "PhoQ-PhoP variant library, added: 10 µM Mg2+", "how to read": "baseline: high Mg2+ state, higher = stronger signaling", "endpoint": "fold induction", "result": 17.1}
{"Molecule": "GCACGTTA", "target": "KAT6A winged helix 1, GST fusion", "test": "protein binding microarray", "system": "double-stranded DNA, one strand shown, in vitro", "setting": "not given, 8-mer, flanks averaged, mean of 2 arrays, mostly near background", "how to read": "baseline: not given, higher = stronger binding", "endpoint": "E-score", "result": -0.0821}
{"Molecule": "CCAGGCTC", "target": "Histone acetyltransferase KAT6A, winged helix 2, GST fusion (KAT6A, Homo sapiens, UniProt Q92794, residues 85-181)", "test": "protein binding microarray", "system": "double-stranded DNA, one strand shown, in vitro", "setting": "not given, 8-mer, flanks averaged, mean of 2 arrays, mostly near background", "how to read": "baseline: not given, higher = stronger binding", "endpoint": "E-score", "result": 0.116}
{"Molecule": "AAAGTAAC", "target": "KAT6A winged helix 1, GST fusion", "test": "protein binding microarray", "system": "double-stranded DNA, one strand shown, in vitro", "setting": "not given, 8-mer, flanks averaged, mean of 2 arrays, mostly near background", "how to read": "baseline: not given, higher = stronger binding", "endpoint": "E-score", "result": -0.00012}
{"note": "A few entries again (study 1):"}
{"Oligonucleotide": "ATGCCCGA", "E-score": -0.188}
{"Oligonucleotide": "CCGGGGCG", "E-score": -0.414}
